Measured values collected from several papers.
Each line is one published result; not all experiments were run side by side. ± gives the spread as reported.

For O=C(O)C1OC(OC2C(COS(=O)(=O)O)OC(OC3C(C(=O)O)OC(OC4C(COS(=O)(=O)O)OC(OC5C(C(=O)O)OC(OC6C(COS(=O)(=O)O)OC(OC7C(C(=O)O)OC(OC8C(COS(=O)(=O)O)OC(OC9C(C(=O)O)OC(OC%10C(COS(=O)(=O)O)OC(OC%11C(C(=O)O)OC(Oc%12ccc([N+](=O)[O-])cc%12)C(O)C%11O)C(NS(=O)(=O)O)C%10O)C(OS(=O)(=O)O)C9O)C(NS(=O)(=O)O)C8O)C(OS(=O)(=O)O)C7O)C(NS(=O)(=O)O)C6O)C(OS(=O)(=O)O)C5O)C(NS(=O)(=O)O)C4O)C(OS(=O)(=O)O)C3O)C(NS(=O)(=O)O)C2OS(=O)(=O)O)C(O)C(O)C1OC1OC(COS(=O)(=O)O)C(O)C(O)C1NS(=O)(=O)O (stereo not drawn), toxicity read “not toxic” (rats; intravenous, 400, 1200 and 3600 µg/kg/day for 7 days).
Under “patients with treatment-related adverse event”, CC(C)c1cnc(-c2cc(Cl)ccc2F)cc1Nc1ccncc1C(=O)NC(CO)CO is recorded as 0% (monotherapy, item: fatigue; human patients; oral, dose not given, grade 5, phase I A).
For CC(C)C[C@H](NC(=O)[C@H](Cc1c[nH]c2ccccc12)NC(=O)[C@@H](N)CO)C(=O)N[C@@H](C)C(=O)N[C@@H](Cc1ccc(O)cc1)C(=O)N1CCC[C@H]1C(=O)NCC(=O)N[C@@H](C)C(=O)N[C@H](C(=O)N[C@@H](CO)C(=O)N[C@@H](Cc1ccc(O)cc1)C(=O)N[C@@H](CCCNC(=N)N)C(=O)NCCCCCC(=O)N[C@@H](CCCCNC(=O)[C@H](CCCNC(=N)N)NC(=O)[C@H](Cc1ccc(O)cc1)NC(=O)[C@H](CO)NC(=O)[C@@H](NC(=O)[C@H](C)NC(=O)CNC(=O)[C@@H]1CCCN1C(=O)[C@H](Cc1ccc(O)cc1)NC(=O)[C@H](C)NC(=O)[C@H](CC(C)C)NC(=O)[C@H](Cc1c[nH]c2ccccc12)NC(=O)[C@@H](N)CO)C(C)C)C(=O)O)C(C)C, “fold shortening of half-life” read ~8 fold (mouse serum; reference: SWL monomer).
NCCn1c2ccc([N+](=O)[O-])cc2c(=O)n1Cc1ccccc1 has a CC50 of 140 ± 16.2 µM (resazurin; peritoneal macrophages, BALB/c mice; 48 h, 10% FBS).
CN1CCC[C@]1(C)/C=C/S(=O)(=O)NC(=O)Nc1c2c(cc3c1CCC3)CCC2: “accumulation ratio AUC(0-tau)” 1.4 (human, plasma; oral, 100 mg twice daily, 14 days, multiple ascending dose; reference: day 14 over day 1).
The half-life of [2H]C1([2H])CC[C@@H](C[C@@H](C#N)NC(=O)[C@@H]2[C@@H]3[C@H](CN2C(=O)[C@@H](NC(=O)C(F)F)C(C)(C)C)C3(C)C)C(=O)N1 is reported as 1.36 h (human liver microsomes; microsomes 0.5 mg/mL).
Cc1ccc(OCC(=O)O)cc1 gave a t1/2 of 2.28 h (Sprague-Dawley rat, female, plasma; oral, 100 mg/kg/day of parent drug, day 1, 90-day repeated dosing).
O=c1c(/C=N/NC(=S)N/N=C/c2ccccc2O)coc2ccccc12: “peak potential separation” 0.172 mV (cyclic voltammetry; anhydrous DMF; Cu2+ complex, glassy carbon electrode).
Under “detection time in blood”, CC[C@H](C)[C@H](NC(=O)[C@H](Cc1c[nH]c2ccccc12)NC(=O)[C@@H]1CCCN1C(=O)[C@H](Cc1ccccc1)NC(=O)[C@@H](NC(=O)[C@@H](N)Cc1c[nH]c2ccccc12)[C@@H](C)CC)C(=O)N[C@@H](CCC(N)=O)C(=O)N[C@@H](CC(C)C)C(=O)NCC(=O)NCC(=O)N[C@H](CCCCN)C(=O)N[C@H](CC(C)C)C(=O)N[C@H](C)C(=O)N[C@H](CCCCN)C(=O)N[C@H](CC(C)C)C(=O)N[C@H](C)C(=O)N[C@H](CCCCN)C(=O)N[C@H](CCCCN)C(=O)N[C@H](CC(C)C)C(=O)N[C@H](C)C(=O)N[C@H](CCCCN)C(=O)N[C@H](CC(C)C)C(=O)N[C@H](C)C(=O)N[C@H](CCCCN)C(=O)O is recorded as ≥ 4 h (MALDI-TOF; mouse; intravenous, dose not given).
With O=C(O)[C@@H]1C[C@@H](O)CN1C(=O)[C@@H]1CCCN1 the log beta was 14.9 (potentiometric titration; 40 °C, MA complex, with: Fe(III)).
CCOc1ccc(Cc2cc([C@@H]3O[C@H](CO)[C@@H](O)[C@H](O[C@@H]4O[C@H](C(=O)O)[C@@H](O)[C@H](O)[C@H]4O)[C@H]3O)ccc2Cl)cc1: “urinary concentration ratio” 30 (dog, urine; reference: dog over human).
The helicity of CC[C@H](C)[C@@H]1NC(=O)[C@H](Cc2ccccc2)NC(=O)[C@@H](NC(=O)[C@H](CCCNC(=N)N)NC(=O)[C@H](Cc2ccccc2)NC(=O)[C@H](Cc2ccccc2)NC(=O)[C@H](CCCCN)NC(=O)[C@H](CO)NC(=O)[C@H](CC(C)C)NC(=O)[C@H](CCCNC(=N)N)NC(=O)[C@H](CCSC)NC(=O)[C@H](C)N)CCCCNC(=O)NCCC[C@@H](C(=O)N[C@@H](CCCNC(=N)N)C(=O)N[C@@H](CCCCN)C(=O)N[C@@H](CCCCN)C(=O)O)NC(=O)[C@H](CC(C)C)NC1=O is reported as 12.1% (circular dichroism; 20% TFE in PBS; 200 µM, pH 7.4, 25 °C).
The prothrombin time of CCCCCCCCCCCCCCCC(=O)N[C@@H](CCCCN)C(=O)N[C@@H](CCCCN)C(=O)N[C@@H](CO)C(=O)N[C@@H](CCCNC(=N)N)C(=O)N[C@@H](C)C(=O)N[C@@H](CC(C)C)C(=O)N[C@@H](Cc1ccccc1)C(N)=O is reported as 11.8 ± 0.4 s (cynomolgus monkey, male; 3 mg/kg, day 1).
The intact complex of O=C([O-])CN1CCN(CC(=O)[O-])CCN(CC(=O)NCC2CCC(C(=O)NC(Cc3ccc4ccccc4c3)C(=O)NCCCCC(NC(=O)NC(CCC(=O)O)C(=O)O)C(=O)O)CC2)CCN(CC(=O)[O-])CC1.[44Sc+3] (stereo not drawn) is reported as 97.3 ± 0.1% (transchelation stability; 4 h, 37 °C, with: EDTA 10 mM).
CCCC[C@H](NC(C)=O)C(=O)N[C@H]1CC(=O)NCCCC[C@@H](C(=O)N[C@@H](C(=O)N2CCC[C@@H]2C(N)=O)C(C)C)NC(=O)[C@H](Cc2c[nH]c3ccccc23)NC(=O)[C@H](CCCN=C(N)N)NC(=O)[C@@H](Cc2ccc3ccccc3c2)NC(=O)[C@@H]2CCCN2C1=O gave a plasma histamine of 11.2 ng/mL (healthy dogs, plasma; subcutaneous, 2.25 mg/kg per day, day 1, 4 h post-dose, median).
Under “ulcer severity index”, COc1cccc(NCc2cn(-c3ccccc3)nc2-c2ccc(OCc3ccccc3)cc2)c1 is recorded as 0.76 ± 0.36 (rat, gastric mucosa; oral, 60 mg/kg, 17 h; reference: control score subtracted).
For C[C@H](NC(=O)c1ccc2c(c1)C(=O)OC21c2ccc(O)cc2Oc2cc(O)ccc21)C(=O)N[C@@H](CCCCN)C(=O)N[C@@H](C)C(=O)N[C@@H](CCCCN)C(=O)N[C@@H](C)C(=O)N[C@@H](CCCCN)C(=O)N[C@@H](C)C(=O)N[C@@H](CCCCN)C(=O)N[C@@H](C)C(=O)N[C@@H](CCCCN)C(=O)N[C@@H](C)C(=O)N[C@@H](CCCCN)C(=O)N[C@@H](C)C(=O)N[C@@H](CCCCN)C(=O)N[C@@H](C)C(=O)N[C@@H](CC(N)=O)C(=O)N[C@@H](C)C(=O)N[C@@H](CC(N)=O)C(=O)N[C@@H](C)C(=O)N[C@@H](CC(N)=O)C(=O)O, the desorbed fraction was 100% (bovine healthy cartilage; 24 h, 10 x PBS).
NC12CNCCNCC(NCc3ccc(CNC(=O)CCCC(=O)NCc4ccc(-c5nncnn5)cc4)cc3)(CNCCNC1)CNCCNC2.[64Cu+2]: “mean absorbed dose” 0.0326 rad/mCi (OLINDA dosimetry; lungs; 48 h pretargeting interval, with: huA33-TCO pretargeting).
For CC1=CC(C)=[N+]2C1=C(CO)c1c(C)cc(C)n1[B-]2(C)C, photostability read “stable” (DMSO/MeOH 1:1; 10 min, 510 nm irradiation 2.44 J/cm2).
CCC(C)n1c(C(=O)Nc2cnc(C(=O)NC)n(CC(C)C)c2=O)ncc(NC(=O)c2ncc(NC(=O)c3ccccc3)c(=O)n2Cc2ccc(OC)cc2)c1=O (stereo not drawn): “parent compound remaining” 91% (human liver microsomes; 2 µM, 40 min, pH 7.4, 37 °C).
Under “subjects with TEAE”, Cn1c(=O)oc2ccc(-c3ccc(CC(C#N)NC(=O)C4CNCCCO4)c(F)c3)cc21 (stereo not drawn) is recorded as 0% (item: monocyte count increased; human; 15 mg single dose, fasted).
COc1cc(NC(C)=O)c2c(c1O)-c1c(OC)c(OC)cc3c1C(C2)N(C)CC3 (stereo not drawn) has a remaining compound of 95.3 ± 1.1% (rat kidney homogenate; 5 µg/mL, time not given, three freeze-thaw cycles).
CC[C@H](C)[C@H](NC(=O)[C@H](Cc1ccccc1)NC(=O)[C@H](CC(=O)O)NC(=O)[C@H](CCCNC(=N)N)NC(=O)[C@H](Cc1ccccc1)NC(=O)[C@H](Cc1ccccc1)NC(=O)[C@H](CCN)NC(=O)[C@H](CO)NC(=O)[C@H](CC(C)C)NC(=O)[C@H](CCCNC(=N)N)NC(=O)[C@H](CCSC)NC(=O)[C@H](C)N)C(=O)N[C@@H](CCCCN)C(=O)N[C@@H](CCC(N)=O)C(=O)N[C@@H](CCCNC(=N)N)C(=O)N[C@@H](CCCCN)C(=O)N[C@@H](CCCCN)C(=O)O gave a helicity of 16.2% (circular dichroism; 20% TFE in PBS; 200 µM, pH 7.4, 25 °C).
CCCC[C@H](NC(=O)CNC(=O)CNC(=O)CN1CCN(CC(=O)O)CCN(CC(=O)O)CCN(CC(=O)O)CC1)C(=O)N[C@H]1CC(=O)NCCCC[C@@H](C(N)=O)NC(=O)[C@H](Cc2c[nH]c3ccccc23)NC(=O)[C@H](CCCNC(=N)N)NC(=O)[C@@H](Cc2ccccc2)NC(=O)[C@H](Cc2c[nH]cn2)NC1=O [gallium-67 labelled] — result for “tumour to tissue uptake ratio”: 8.1 (C57 mice, female, B16/F1 melanoma, tumour over blood; intravenous, 0.037 MBq, 0.5 h).
CC(C)(Sc1cc[n+]([O-])cc1-c1ccc(C#N)c2ccccc12)C(=O)OC1OC(C(=O)O)C(O)C(O)C1O (stereo not drawn) gave a Cmax increase of 56% (adult men, plasma; oral, 15 mg verinurad, moderate renal impairment; reference: normal renal function).
N=C(N)NCCC[C@@H]1NC(=O)[C@H](Cc2c[nH]c3ccccc23)NC(=O)[C@@H](CC2CCCCC2)NC(=O)[C@@H]2CCCN2C(=O)[C@@H](NC(=O)CCc2ccccc2)CCCNC1=O gave an MRT(0-last) of 0.72 h (C57BL/6J mouse, plasma brain; subcutaneous, 1 mg/kg single dose).
O=C(O)/C=C/c1cccc(S(=O)(=O)Nc2ccccc2)c1 — result for “Cmax metabolic ratio”: 0.0806 (human, severe liver dysfunction, plasma; intravenous, 400 mg/m^2 belinostat, cycle 1 day -7, geometric mean; reference: metabolite over belinostat).
